# Published values collected from several papers.
# Numbered parts are unrelated; each lists some results of a single study. Positions count from the first letter of the parent shown.

# Series 1 — target: CCND2, cyclin fold, Cln2 fusion (human); method: yeast growth competition, sequencing; matrix: yeast; notes: weak parent motif; reference: not given; direction: higher = stronger binding
# Starting sequence: WEE1 docking peptide (human); HKTFRKLRLFDTP; partner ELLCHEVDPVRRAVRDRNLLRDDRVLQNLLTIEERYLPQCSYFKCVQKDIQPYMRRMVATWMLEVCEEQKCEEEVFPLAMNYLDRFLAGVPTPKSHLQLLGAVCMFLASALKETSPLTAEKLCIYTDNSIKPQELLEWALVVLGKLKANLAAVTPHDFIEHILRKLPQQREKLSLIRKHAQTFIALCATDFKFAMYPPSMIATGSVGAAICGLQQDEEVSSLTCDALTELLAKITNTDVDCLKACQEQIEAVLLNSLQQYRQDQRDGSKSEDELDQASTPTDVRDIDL
Variant,normalised enrichment score
HKTFRKVRLFDTP [L7V],0.0777
HKTFRELRLFDTP [K6E],0.427
HKTFRKLRLFPTP [D11P],0.345
HKTMRKLRLFDTP [F4M],0.491
HKTFLKLRLFDTP [R5L],0.616
HKTFRKDRLFDTP [L7D],-0.251
HKTFRKLRLFDTA [P13A],-0.232
HKTFRGLRLFDTP [K6G],0.0151
HKTFRKLRLFDGP [T12G],0.548
HTTFRKLRLFDTP [K2T],0.198
HKTFRKLHLFDTP [R8H],-0.0102
HKTFRILRLFDTP [K6I],0.0918
HKTFRKLRLFDHP [T12H],0.602
HKTFRALRLFDTP [K6A],0.129
HKKFRKLRLFDTP [T3K],-0.276
HKTFRKLRLFDTF [P13F],-0.0171
HPTFRKLRLFDTP [K2P],0.0697
HKTFRKLELFDTP [R8E],0.39
HKTFRKLRQFDTP [L9Q],0.187
HKTNRKLRLFDTP [F4N],0.11
HKTFRKLRLFDTI [P13I],-0.0786
HKTFWKLRLFDTP [R5W],-0.292
HKTFRKLRLWDTP [F10W],-0.0446
HKTFRKLRLNDTP [F10N],0.0453
HKTFRKLRLPDTP [F10P],0.405

# Series 2 — method: universal PBM; molecule type: double-stranded DNA, one strand shown; matrix: in vitro; concentration: not given; direction: higher = stronger binding
# Target: Sal-like protein 4, full length isoform B (SALL4, Homo sapiens, UniProt Q9UJQ4-2, residues 1-616)
# Notes: 8-mer, flanks averaged, mean of replicates
# Target sequence (chain): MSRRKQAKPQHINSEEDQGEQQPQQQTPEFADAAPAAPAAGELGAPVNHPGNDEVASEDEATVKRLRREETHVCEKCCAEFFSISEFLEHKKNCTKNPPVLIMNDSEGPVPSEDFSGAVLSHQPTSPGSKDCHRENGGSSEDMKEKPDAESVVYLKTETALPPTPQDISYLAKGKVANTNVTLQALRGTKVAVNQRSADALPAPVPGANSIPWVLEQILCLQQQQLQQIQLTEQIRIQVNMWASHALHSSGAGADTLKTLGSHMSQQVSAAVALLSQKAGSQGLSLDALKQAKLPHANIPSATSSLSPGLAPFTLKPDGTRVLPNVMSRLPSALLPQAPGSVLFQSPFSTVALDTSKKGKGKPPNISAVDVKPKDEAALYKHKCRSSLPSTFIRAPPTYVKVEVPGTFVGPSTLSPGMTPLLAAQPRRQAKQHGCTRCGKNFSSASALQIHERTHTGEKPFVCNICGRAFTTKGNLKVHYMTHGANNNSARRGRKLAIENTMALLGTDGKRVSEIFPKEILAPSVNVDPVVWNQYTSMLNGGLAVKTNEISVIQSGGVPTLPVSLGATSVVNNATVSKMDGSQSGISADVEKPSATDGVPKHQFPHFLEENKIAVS
Oligonucleotide,E-score
ATCGGAGG,-0.0672
AGAAGTTC,-0.135
ACCAAGAT,0.0946
CGAAGGCA,-0.121
GGGTTGAC,-0.152
GCGACCTA,-0.185
CAATGGGC,-0.175
CCAGGCTA,-0.257
AACACAAC,0.134
ACAGCCAG,-0.0915
CATCAGCG,-0.106
AAATTTTG,0.294
GGCGTGGA,-0.242
GTAGAGAA,-0.0643
CTTTGGAC,-0.0723
CCAAGGTA,-0.12
GAGGACAC,-0.135
GTGGAGGA,-0.0215
GCGAGCCC,-0.292
GTCCGGGA,-0.26
AACGACTT,-0.0723
CTGTTGCC,-0.14
CCTCTCCC,-0.215
CCAGTCAG,-0.17
AATTCTAA,0.248

# Series 3 — method: RNA Bind-n-Seq; molecule type: RNA; matrix: in vitro; concentration: not given; notes: RNA with constant flanks, ends assumed; reference: input RNA pool; direction: higher = stronger binding
# Target: RING finger protein unkempt homolog, zinc fingers 1-6, GST-SBP tag (UNK, Homo sapiens, UniProt Q9C0B0, residues 30-357)
# Sequence of UniProt Q9C0B0 (30-357, looked up): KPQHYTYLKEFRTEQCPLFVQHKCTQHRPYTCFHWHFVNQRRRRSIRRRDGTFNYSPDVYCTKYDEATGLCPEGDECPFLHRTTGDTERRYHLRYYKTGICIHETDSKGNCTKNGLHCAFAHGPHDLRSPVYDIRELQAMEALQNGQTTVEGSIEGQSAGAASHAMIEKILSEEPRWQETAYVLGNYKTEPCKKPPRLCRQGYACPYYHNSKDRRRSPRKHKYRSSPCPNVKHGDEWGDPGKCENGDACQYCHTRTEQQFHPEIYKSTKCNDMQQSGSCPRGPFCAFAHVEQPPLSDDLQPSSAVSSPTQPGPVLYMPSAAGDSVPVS
# Shared flanks, not repeated: GGGAGUUCUACAGUCCGACGAUC … CAACAGAGGAUUGAGCAUCA
Oligonucleotide,bound/input enrichment [ratio]
CAAAGGAACAAUGUGCAAUUGAUAUGUUUUUAGAUGAGAGAGAAAAAUUAAAGCUAAAAUCCGCUGCAAAGAAGUAUUAAUAAUCACCUCUGCAAAAAUUCUAAGUUGCCAACUGGCAAA,0.817
GGCCUUCGAGGAAGAGGCCCACCUCCUUCAUGGGCCUCUGAGCCUGAACGCCCAUCCAUUCUCCGUGCAUCAGAACUGAAGGAGCUUGAUAAAUUUGAUAACCUAGAUGCUGAAGCUGAU,0.177
UUCACACUGGAUUACAACUACCCACUUUGUGCAGUACAGGCCUUUGGCAUCGGUCUUUCCCGCUUUGACAGUAAGCUGGCGUGUGAAUGAGAGAACAGUCAGGCAGGGAGCCCUUCUCCC,0.23
GCUGCAGGAAAAGAGAUUAUAUGGCAUGGGCGGACAAAAGAAGAACCAGCUCAUUACUGCCGCAUUUGUGAAGUGGAGGUUUUUGAUCUGCUUUUUGUCACUAAUGAGAGUAAUUCACGA,0.136
GAAUCAAGGAUAUCAUUUGAGGAUGUGGCUGUAGACUUCUCCUGGGACCAGUGGCAGCUGCUCCGCCCUACUCAAAAGAGUUUAUACAGAGAUGUGAUGUUGGAGAACUGCAGCAGCCUU,0.293
GUGGCUCACCAUGCUUCUGAAAACAACAGGAUUUUCACUUUGAAUCUAUCUGCACCGUUUAUCCGCCAGUUCUACAAGGAAUCAUUGAUGAAAGUUAUGCCUUAUGUUGAUAUACUUUUU,0.198
GAAAGAACUGUUCCAAGAAUAUUUGUCAAUGGUACUUUUAUUGGAGGUGCAACUGACACUCACCGGCUUCACAAAGAAGGAAAAUUGCUCCCACUAGUUCAUCAGUGUUAUUUAAAAAAA,2.71
GAGUGCCUGAGCAACAUCCGCGAGUUCCUGCGCGCCUGCGGGGCGUCCCUGCGCCCCGAGACUUUUGAUGCAAAUGAUUUGUAUCAGGGGCAGAACUUUAACAAGGUCCUCAGCUCCUUG,0.141

# Series 4 — method: RNA Bind-n-Seq; molecule type: RNA; matrix: in vitro; concentration: 365 nM; reference: no-protein control; direction: higher = stronger binding
# Target: RNA binding protein fox-1 homolog 2, RRM domain, GST-SBP tag (RBFOX2, Homo sapiens, UniProt O43251-10, residues 100-194)
# Notes: natural RNA segment, single round, ends assumed
# Shared flanks, not repeated: GGGAGUUCUACAGUCCGACGAUC … UGGAAUUCUCGGGUGCCAA
# Target sequence (chain): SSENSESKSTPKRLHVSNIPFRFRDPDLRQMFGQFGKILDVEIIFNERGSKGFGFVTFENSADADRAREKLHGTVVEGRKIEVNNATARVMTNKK
Oligonucleotide,RBNS enrichment (R)
CGGGGAGGAACUUCUGGGGCUCCUGCUGGGGCCACUUCCUGGGCUGCUCCCUCGGGCCUGUAGGGGGAGGUGGCCUUCUGACCCCUUUACACGUCCCCUGGGUGGACCUC,0.988
GUUAUCCAACGCUUCAUUGUACCAGACAUUGUCCAGAAGUUUCAAAGACCCUUUGCAAACCCUGAACUGGGCUACGGGAAAAUAACACGAAUACUGAUAAGGACACAACU,0.256
AAAAUAUAAAAACCCUGCCCAGUAGCAGUGGCAUCGCUUGGUUCCUGAUGCCCAUGUUCCAGAGGAAUUCGGAUACCACAAACAGCUAAGACAAUCUCAGCUUUUCUUAG,0.417
GGGAGGUCUGGAUGGAUCUGUGUAGGAGUUCCCUGUAGAUAAAUUACUGAUCCCCCAUCUACUAUCCCCAGUAUGUAAUGGCUGAAUUAAUAUGUAAUCAACUGCAUUGU,0.509
UUUGAAACCAGUCUGCACUACAUGAGGCUUUGUCUCAAAAUGAAAAAGUUUGAGAUUAUCCUAGGCUACAUAGCAAGGUGAUUUCAAGAAAGAGAUGAAGGAAGGAAGGA,0.407
AGAAUCUACGUCUGCCUCUGAAUGGACUUCCCACCUCCUCUCUCUUGCUCUGAUGCUUGCCUCUGGGCCUCUCCAUGCCCAAGGUGGUCUUUCAUCCUUGACAGGCUGGU,1.16
GAAGAAUAGUAGGAAAUCCAAUGAAAUGGCUGUUUCCACCAAGAAUUCUUAGCACUGGUGUAAAUAUCAUGGUGCCUACUCGAAAGAAAUGUAGAUGCUAUGCAUUUUGA,0.41
GGGCCAUGGGGCUUCUUGUGCCCUAAAGGGGACUGGCUGCUGUGAUCUUCUAAGGGGCCCAGGGCCAACCCUGUAGGCUUCCCCUCUGCUGGGGACGGUAGUUGCUUUUC,0.4
